Measured values of several laboratories.
Each numbered part is a random draw from the data of one study; scales do not carry over between parts.

Set 1 — technique: RNA Bind-n-Seq; form: RNA; matrix: in vitro; tested at: 200 nM; notes: whole 134-nt RNA, ends assumed; added: 150 mM KCl; reference: input library; direction: higher = stronger binding
Target: Fragile X messenger ribonucleoprotein 1, C-terminal low-complexity region (Fmr1, Mus musculus, UniProt P35922)
| Oligonucleotide | log2 enrichment |
| --- | --- |
| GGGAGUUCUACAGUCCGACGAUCCACAGACAACACGCACCCACACAGACACAGAGGGAAGGGGUUGGUAUGGGGACAGGGUGCACAGCAGGGCGGGGUAGGACCCCAGCCCCUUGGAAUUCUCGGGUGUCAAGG | 1.34 |
| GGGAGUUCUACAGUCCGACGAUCCUCAAGUCCUGUGCUACACAUCGUAUGUACCGAAUCGGUUUGGUGGAAAAAGGAAAGUAUUAUGUUACGCCGUUCGGAUCUGCACUUCCAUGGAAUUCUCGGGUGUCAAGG | -0.147 |
| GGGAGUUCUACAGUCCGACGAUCGCAGGAAGUAAAAACAAAUGGAAAUGCUUCGGAUAGUGGCAGGGGUGGGGGUUGCUAAGGAAAGGGUGGGAUGGGAGUGGGUACAGAGUUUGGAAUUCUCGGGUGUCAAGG | 0.386 |
| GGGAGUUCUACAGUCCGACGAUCGGGGAGGUGGAUUUUGUUUAUUUUUUUAGCUCAUUUCCAGGGGUGGGAAUUUUUUUUUAAUAUGUGUCAUGAAUAAAGUUGUUUUUGAAAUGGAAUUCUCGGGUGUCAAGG | 0.502 |
| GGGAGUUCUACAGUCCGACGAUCUCCUGUGCUACACAUCGUAUGUACCGAAUCAAACCCCCCCAAAUUUUUUUAAAUUUAAAAAAGUAUUAUGUUACGCCGUUCGGAUCUGCAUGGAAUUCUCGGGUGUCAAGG | 0.49 |
| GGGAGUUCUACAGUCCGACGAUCAGUCCUGUGCUACACAUCGUAUGUACCGAAUCGGGGAAAAGGGGAAAAGGGAAAAGGAAAGUAUUAUGUUACGCCGUUCGGAUCUGCACUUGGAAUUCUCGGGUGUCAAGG | -0.0919 |

Set 2 — technique: universal PBM; form: double-stranded DNA, one strand shown; matrix: in vitro; tested at: 600 nM; direction: higher = stronger binding
Target: Sal-like protein 4, full length isoform A (SALL4, Homo sapiens, UniProt Q9UJQ4, residues 1-1053)
Sequence of UniProt Q9UJQ4 (whole entry, looked up): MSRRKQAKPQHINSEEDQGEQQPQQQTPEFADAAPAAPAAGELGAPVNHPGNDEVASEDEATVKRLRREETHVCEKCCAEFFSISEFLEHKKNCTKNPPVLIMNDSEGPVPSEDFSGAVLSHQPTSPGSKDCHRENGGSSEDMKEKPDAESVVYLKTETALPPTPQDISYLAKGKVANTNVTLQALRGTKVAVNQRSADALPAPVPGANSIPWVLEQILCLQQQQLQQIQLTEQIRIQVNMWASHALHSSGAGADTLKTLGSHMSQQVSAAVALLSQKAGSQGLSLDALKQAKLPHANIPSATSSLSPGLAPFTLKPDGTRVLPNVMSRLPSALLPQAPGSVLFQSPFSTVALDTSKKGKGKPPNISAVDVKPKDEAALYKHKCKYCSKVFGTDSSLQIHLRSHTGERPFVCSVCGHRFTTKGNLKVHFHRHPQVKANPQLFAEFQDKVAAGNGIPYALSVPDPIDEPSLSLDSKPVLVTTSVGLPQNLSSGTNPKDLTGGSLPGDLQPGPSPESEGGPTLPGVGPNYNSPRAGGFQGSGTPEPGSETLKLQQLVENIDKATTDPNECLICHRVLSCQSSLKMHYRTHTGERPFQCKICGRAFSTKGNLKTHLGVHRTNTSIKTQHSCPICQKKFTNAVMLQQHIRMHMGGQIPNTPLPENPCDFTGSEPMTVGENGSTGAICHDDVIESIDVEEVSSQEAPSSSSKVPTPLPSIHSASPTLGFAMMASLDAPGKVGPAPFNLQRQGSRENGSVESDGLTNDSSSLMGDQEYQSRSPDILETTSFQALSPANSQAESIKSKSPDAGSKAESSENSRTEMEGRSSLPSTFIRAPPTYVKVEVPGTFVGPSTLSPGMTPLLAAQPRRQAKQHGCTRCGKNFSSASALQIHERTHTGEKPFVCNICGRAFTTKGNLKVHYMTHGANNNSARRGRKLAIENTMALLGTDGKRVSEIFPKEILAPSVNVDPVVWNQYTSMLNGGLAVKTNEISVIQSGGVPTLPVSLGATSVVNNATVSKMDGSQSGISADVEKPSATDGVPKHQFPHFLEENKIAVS
Notes: 8-mer, flanks averaged, mean of replicates
| Oligonucleotide | E-score |
| --- | --- |
| AATGTCCG | -0.025 |
| ACGTTTCT | 0.0614 |
| CTGTTACA | 0.0812 |
| GTTGTTGA | 0.123 |
| GCCGTTAA | -0.0675 |
| GCGGATAA | -0.0488 |

Set 3 — technique: aptamer microarray, sandwich; form: DNA with 2'F-ANA; matrix: in vitro; tested at: 200 nM; added: Cy3 exosite-II aptamer, 400 nM; direction: higher = stronger binding; oligonucleotide: GGTTGGTGTGGTTGG
Target: Prothrombin, mature alpha-thrombin (F2, Homo sapiens, UniProt P00734)
Notes: whole 15-mer aptamer, many near background
| Modification | mean fluorescence intensity [a.u.] |
| --- | --- |
| 2'F-ANA at 1 2 7 8 11 13 | 305 |
| 2'F-ANA at 5 6 8 9 11 13 15 | 76 |
| 2'F-ANA at 1 2 4 6 7 8 11 14 15 | 53.7 |
| 2'F-ANA at 4 8 9 10 11 13 15 | 266 |
| 2'F-ANA at 1 3 5 10 13 15 | 48.6 |
| 2'F-ANA at 4 8 10 11 12 13 | 98.3 |

Other studies, line by line
| Molecule | target | assay | test system | conditions | how to read | measurement | result |
| --- | --- | --- | --- | --- | --- | --- | --- |
| PhoQ, residues 284 288 289 292 302 303 TNASYF | PhoP, residues 12 14 15 18 19 STWGI (Escherichia coli, UniProt P23836) | Sort-seq, refers to: YFP reporter | E. coli | PhoQ-PhoP variant library, added: 10 µM Mg2+ | reference: high Mg2+ state, higher = stronger signaling | fold induction | 1.18 |
